# Experimental data from different studies.
# Numbered parts are unrelated; each lists some results of a single study. Positions count from the first letter of the parent shown.

# Block 1
# Target: Sal-like protein 4, full length isoform B (SALL4, Homo sapiens, UniProt Q9UJQ4-2, residues 1-616)
# Method: universal PBM
# Molecule type: double-stranded DNA, one strand shown
# Medium: in vitro
# Concentration: not given
# Setting: 8-mer, flanks averaged, mean of replicates
# Reading: higher = stronger binding
Oligonucleotide,E-score
CGCAGATC,-0.18
CGTAGTCA,-0.0219
CAGGGCGA,-0.284
CAAACTTC,-0.0416
CTAACCAA,0.0605
ACGGCAAG,-0.115
TAAGAGTA,0.325
ATCTTATG,0.171
AGATTTGG,0.0257
CTTGCTCA,-0.198
ATGGGCAG,-0.143
ATATACGC,0.144
CTGGGCTA,-0.286
TAATCCCA,0.0616
ACGTCTGG,0.0656
CCATGCTC,-0.179
CAGCGAGA,-0.194
CTCCATGC,-0.106
TATTGACA,0.342

# Block 2
# Target: Fragile X messenger ribonucleoprotein 1, C-terminal low-complexity region (Fmr1, Mus musculus, UniProt P35922)
# Method: RNA Bind-n-Seq
# Molecule type: RNA
# Medium: in vitro
# Concentration: 200 nM
# Setting: whole 134-nt RNA, ends assumed
# Added: 150 mM LiCl
# Baseline: input library
# Reading: higher = stronger binding
# Library: 7-deaza-guanosine replaces G
# Shared flanks, not repeated: GGGAGUUCUACAGUCCGACGAUC … UGGAAUUCUCGGGUGUCAAGG
Oligonucleotide,log2 enrichment
GCAGGAAGUAAAAACAAAUGGAAAUGCUUCGGAUAGUGGCAGGGGCGGGGGUUGCUAAGGAAAGGGUGGGAUGGGAGUGGGUAAAGAGUU,1.43
CUCAAGUCCUGUGCUACACAUCGUAUGUACCGAAUCGGUUUUUUUGGUGGAGGAAAGUAUUAUGUUACGCCGUUCGGAUCUGCACUUCCA,-0.23
AAGUCCUGUGCUACACAUCGUAUGUACCGAAUCGGAAAGGAAAAAAAGGAAAAAGGAAAGUAUUAUGUUACGCCGUUCGGAUCUGCACUU,-1.17
CCUCAAGUCCUGUGCUACACAUCGUAUGUACCGAAUCGGGUUGGGUUGGUUGGAAAGUAUUAUGUUACGCCGUUCGGAUCUGCACUUCCA,0.0376
CACAGACAAAAAGCACCCACACAGACACAGAGGGAAGGGGUUGGGAUGGGGACAGGGUGCACAGCAGGGCGGGGUAGGACCCCAGCCCCU,0.236
UCCUGUGCUACACAUCGUAUGUACCGAAUCGGGCCCCCCGGGCCCCCCGGCCCCCCGGGAAAGUAUUAUGUUACGCCGUUCGGAUCUGCA,0.259
UCAAGUCCUGUGCUACACAUCGUAUGUACCGAAUCGGAAAGGGAAAGGGAAAGGGAAAGUAUUAUGUUACGCCGUUCGGAUCUGCACUUC,-0.625
CCUGUGCUACACAUCGUAUGUACCGAAUCGGGGCCCCCCGGGGCCCCCCGGGCCCCCCGGGAAAGUAUUAUGUUACGCCGUUCGGAUCUG,-2.58
AAGUCCUGUGCUACACAUCGUAUGUACCGAAUCGGGUUUGGGAAAAAAAGGGUGGGAAAGUAUUAUGUUACGCCGUUCGGAUCUGCACUU,-1.81
ACCAUGCAGGUGGGCAUCUUUGGGAAGUGGGGCAAGGGGUGGAUAGGGAGGGGGGUAACACUUUGGGAACAGGUGGUCCCAGGUCGUUUC,1.01
UUGUGAUAGCCAAGUGGGACUACACCGCCCAGCAGGACCAGGAGCUGGACAUCAAGAAGAACGAGCGGCUGUGGUUGCUGGACGACUCCA,-1.55

# Block 3
# Target: UBE2R2 UBC core domain (UniProt Q712K3)
# Method: yeast two-hybrid
# Medium: yeast
# Setting: mostly zero background
# Baseline: not given
# Reading: higher = stronger interaction
# B1: RNF32 RING domain (UniProt Q9H0A6); chain SLLQGDSVQPCPICKEEFELRPQVLLSCSHVFHKACLQAFEKFTNKKTCPLCRKNQYQTRVIH
# B2: RNF150 RING domain (UniProt Q9ULK6); chain DKETESDFDNCAVCIEGYKPNDVVRILPCRHLFHKSCVDPWLLDHRTCPMCKMNILKALGIP
# B3: RFPL2 RING domain (UniProt O75678); chain MAALFQEASSCPVCSDYLEKPMSLECGCAVCLKCINSLQKEPHGEDLLCCCSSMVSRKNKIRR
# B4: RNF14 RING domain (UniProt Q9UBS8); chain IKCFNSKLFLCSICFCEKLGSECMYFLECRHVYCKACLKDYFEIQIRDGQVQCLNCPEPKCPSVATPGQVK
# B5: TRIM35 RING domain (UniProt Q9UPQ4); chain PSRSFKEELLCAVCYDPFRDAVTLRCGHNFCRGCVSRCWEVQVSPTCPVCKDRASPADLRT
# B6: TRIM10 RING domain (UniProt Q9UDY6); chain SVTSLADEVNCPICQGTLREPVTIDCGHNFCRACLTRYCEIPGPDLEESPTCPLCKEPFRPGSFRP
# B7: RNF112 RING domain (UniProt Q9ULX5); chain QPMAPRELPTCSICLERLRDPISLDCGHDFCIRCFSTHRLPGCEPPCCPECRKICKQKRGLR
# B8: RNF4 RING domain (UniProt P78317); chain TGLRPSGTVSCPICMDGYSEIVQNGRLIVSTECGHVFCSQCLRDSLKNANTCPTCRKKINHKRYHP
# B9: UBE4A RING domain (UniProt Q14139); chain LQQQEEETYADACDEFLDPIMSTLMCDPVVLPSSRVTVDRSTIARHLLSDQTDPFNRSPLTMDQIRPNTELKEKIQRWLAERKQQKEQLE
# B10: ANKIB1 RING domain (UniProt Q9P2G1); chain LSPGDLDTSLCDICMCSISVFEDPVDMPCGHDFCRGCWESFLNLKIQEGEAHNIFCPAYDCFQLVPVDIIE
# Target sequence (chain): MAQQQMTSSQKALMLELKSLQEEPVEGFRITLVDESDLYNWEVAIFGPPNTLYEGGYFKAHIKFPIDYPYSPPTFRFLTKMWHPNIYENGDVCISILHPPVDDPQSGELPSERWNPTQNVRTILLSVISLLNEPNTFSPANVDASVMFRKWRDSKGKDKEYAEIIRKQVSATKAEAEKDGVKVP
Sequence,lacZ reporter activity
B1 (RNF32 RING domain),0
B2 (RNF150 RING domain),0
QLQDEEDDSLCRICMDAVIDCVLLECGHMVTCTKCGKRMSECPICRQYVVRAVHVF (RNF34 RING domain (UniProt Q969K3)),0
B3 (RFPL2 RING domain),0
B4 (RNF14 RING domain),0
B5 (TRIM35 RING domain),0
B6 (TRIM10 RING domain),0
SYEDKSNDFVCPICFDMIEEAYMTKCGHSFCYKCIHQSLEDNNRCPKCNYVVDNIDHLY (COP1 RING domain (UniProt Q8NHY2)),0
B7 (RNF112 RING domain),0
B8 (RNF4 RING domain),0
B9 (UBE4A RING domain),0
FLKKLEQSFMCVCCQELVYQPVTTECFHNVCKDCLQRSFKAQVFSCPACRHDLGQNYIMI (UHRF2 RING domain (UniProt Q96PU4)),0
B10 (ANKIB1 RING domain),0

# Block 4
# Target: CCNA2, cyclin fold, Cln2 fusion (human)
# Method: yeast growth competition, sequencing
# Medium: yeast
# Setting: strong parent motif
# Baseline: not given
# Reading: higher = stronger binding
# Starting sequence: RB1 docking peptide (human); PKPLKKLRFDIEG
Substitution,normalised enrichment score
PKPLKKLRFIIEG [D10I],0.883
PKPLKKQRFDIEG [L7Q],0.285
PKPVKKLRFDIEG [L4V],2.07
PKPLKKLAFDIEG [R8A],1.02
PKPLKKLRNDIEG [F9N],1.89
CKPLKKLRFDIEG [P1C],2.57
PKPLKKARFDIEG [L7A],1.15
PKPLKKLRWDIEG [F9W],1.22
PKPLKKLRFHIEG [D10H],1.28
PKPDKKLRFDIEG [L4D],1.94
PKPLKKLRTDIEG [F9T],0.626
PKPLSKLRFDIEG [K5S],2.3
PKPLKKLRFDIIG [E12I],2.61
PKPLKKKRFDIEG [L7K],1.37

# A few entries again (block 1):
Oligonucleotide,E-score
CTAACCAA,0.0605
CCATGCTC,-0.179
CAGGGCGA,-0.284
CTCCATGC,-0.106
TAATCCCA,0.0616
